{"data": "Assay results from different studies", "technique": "steady-state kinetics", "B1": "enzyme (Tanacetum cinerariifolium, UniProt H6U1I8); chain SQQAAALFIFGDSVFDPGNNNHINTHVNFKANFWPYGQSYFSSPTGRFSDGRIIPDFIAEYASLPIIPAYLEPNNDFTHGANFASAGAGALIASHAGLAVGLQTQLRYFGDLVDHYRQNLGDIKSRQLLSDAVYLFSCGGNDYQSPYYPYTQEQYVDIVIGNMTNVIKGIYEKGGRKFGVVNVPLIGCWPGMRAKQPGNTCNTEVDELTRLHNQAFAKRLEQLEKQLEGFVYAKFDLSTAILNRMKNPSKYGFKEGESACCGSGPFGGNYDCGRIKEFGLCDNATEYFFFDPFHPNELASRQFAEMFWDGDSMVTQPYNLKALFEGKPSTKYLPNDEL", "B2": "FMO3 D132H (Homo sapiens, UniProt P31513); chain GKKVAIIGAGVSGLASIRSCLEEGLEPTCFEKSNDIGGLWKFSDHAEEGRASIYKSVFSNSSKEMMCFPDFPFPDDFPNFMHNSKIQEYIIAFAKEKNLLKYIQFKTFVSSVNKHPDFATTGQWDVTTERHGKKESAVFDAVMVCSGHHVYPNLPKESFPGLNHFKGKCFHSRDYKEPGVFNGKRVLVVGLGNSGCDIATELSRTAEQVMISSRSGSWVMSRVWDNGYPWDMLLVTRFGTFLKNNLPTAISDWLYVKQMNARFKHENYGLMPLNGVLRKEPVFNDELPASILCGIVSVKPNVKEFTETSAIFEDGTIFEGIDCVIFATGYSFAYPFLDESIIKSRNNEIILFKGVFPPLLEKSTIAVIGFVQSLGAAIPTVDLQSRWAAQVIKGTCTLPSMEDMMNDINEKMEKKRKWFGKSETIQTDYIVYMDELSSFIGAKPNIPWLFLTDPKLAMEVYFGPCSPYQFRLVGPGQWPGARNAILTQWDRSLKPMQTRVVGRLQKPCFFFHWLKLFAIPILLIAVFLVLT", "B3": "UGT1A1 (Homo sapiens, UniProt P22309); chain HAGKILLIPVDGSHWLSMLGAIQQLQQRGHEIVVLAPDASLYIRDGAFYTLKTYPVPFQREDVKESFVSLGHNVFENDSFLQRVIKTYKKIKKDSAMLLSGCSHLLHNKELMASLAESSFDVMLTDPFLPCSPIVAQYLSLPTVFFLHALPCSLEFEATQCPNPFSYVPRPLSSHSDHMTFLQRVKNMLIAFSQNFLCDVVYSPYATLASEFLQREVTVQDLLSSASVWLFRSDFVKDYPRPIMPNMVFVGGINCLHQNPLSQEFEAYINASGEHGIVVFSLGSMVSEIPEKKAMAIADALGKIPQTVLWRYTGTRPSNLANNTILVKWLPQNDLLGHPMTRAFITHAGSHGVYESICNGVPMVMMPLFGDQMDNAKRMETKGAGVTLNVLEMTSEDLENALKAVINDKSYKENIMRLSSLHKDRPVEPLDLAVFWVEFVMRHKGAPHLRPAAHDLTWYQYHSLDVIGFLLAVVLTVAFITFKCCAYGYRKCLGKKGRVKKAHKSKTH", "B4": "enzyme (Candida albicans, UniProt A0A1D8PHX1); chain MISIIQNGISQLSSVSGLDEANLKILICTLLSFPFGIIFKRLPDHDYTLKNIYNVAVSCFYVFGICDLRFGISTLLISATGSYFITRYVRTKSMPWINFLFLMIHMAYSHFHLQFFKEYDPKSIDITGAQMILVMKLSAFGWNIHDGKQPRSTLNDFNKARAITKHPNVLPYIGYVFFYASLLTGPAFDYADYDKFIHGTLFDDVPQDKRPGKNKRRIPRSGVQAFKKFSLGFFWAFLLLQSDKFVTMEYMFSPEFVQYHGLFYRIIYMWILGFTFRLKYYTIWTIAEGACILCGIGYNGVDPETGEFKWNRVQNIDPWSFETGQNVHACLEAWNQNTNIWLKNYVYLRVAKPGKKPGFKSTIFTFTTSAFWHGTRPGYYLTFVVGALMQTVGKYYRRNFRPIFLEADGKTPKPTKIVYDFVCWVNTQLAFGFFVQPFVILGFTKSLECWATVYYWLLWVIAISFFAFSGPFAKSVSKFFKSLQPSYREQQRKSREDKYKLNNEEASIVEQAVGAKLGQDYDIPALGLPPFDVFTDFDQTEVDHDIQHLRKAWTSFRGRRGSITENDFDGLKDAYNNFTNEINDIFNTKKEEFKKEKLNKQN", "B5": "CMBL (Homo sapiens, UniProt Q96DG6); chain MANEAYPCPCDIGHRLEYGGLGREVQVEHIKAYVTKSPVDAGKAVIVIQDIFGWQLPNTRYIADMISGNGYTTIVPDFFVGQEPWDPSGDWSIFPEWLKTRNAQKIDREISAILKYLKQQCHAQKIGIVGFCWGGTAVHHLMMKYSEFRAGVSVYGIVKDSEDIYNLKNPTLFIFAENDVVIPLKDVSLLTQKLKEHCKVEYQIKTFSGQTHGFVHRKREDCSPADKPYIDEARRNLIEWLNKYM", "B6": "FMO3 E158K (Homo sapiens, UniProt P31513); chain GKKVAIIGAGVSGLASIRSCLEEGLEPTCFEKSNDIGGLWKFSDHAEEGRASIYKSVFSNSSKEMMCFPDFPFPDDFPNFMHNSKIQEYIIAFAKEKNLLKYIQFKTFVSSVNKHPDFATTGQWDVTTERDGKKESAVFDAVMVCSGHHVYPNLPKKSFPGLNHFKGKCFHSRDYKEPGVFNGKRVLVVGLGNSGCDIATELSRTAEQVMISSRSGSWVMSRVWDNGYPWDMLLVTRFGTFLKNNLPTAISDWLYVKQMNARFKHENYGLMPLNGVLRKEPVFNDELPASILCGIVSVKPNVKEFTETSAIFEDGTIFEGIDCVIFATGYSFAYPFLDESIIKSRNNEIILFKGVFPPLLEKSTIAVIGFVQSLGAAIPTVDLQSRWAAQVIKGTCTLPSMEDMMNDINEKMEKKRKWFGKSETIQTDYIVYMDELSSFIGAKPNIPWLFLTDPKLAMEVYFGPCSPYQFRLVGPGQWPGARNAILTQWDRSLKPMQTRVVGRLQKPCFFFHWLKLFAIPILLIAVFLVLT", "B7": "UGT1A9 (Homo sapiens, UniProt O60656); chain GKLLVVPMDGSHWFTMRSVVEKLILRGHEVVVVMPEVSWQLGRSLNCTVKTYSTSYTLEDLDREFKAFAHAQWKAQVRSIYSLLMGSYNDIFDLFFSNCRSLFKDKKLVEYLKESSFDAVFLDPFDNCGLIVAKYFSLPSVVFARGILCHYLEEGAQCPAPLSYVPRILLGFSDAMTFKERVRNHIMHLEEHLLCHRFFKNALEIASEILQTPVTEYDLYSHTSIWLLRTDFVLDYPKPVMPNMIFIGGINCHQGKPLPMEFEAYINASGEHGIVVFSLGSMVSEIPEKKAMAIADALGKIPQTVLWRYTGTRPSNLANNTILVKWLPQNDLLGHPMTRAFITHAGSHGVYESICNGVPMVMMPLFGDQMDNAKRMETKGAGVTLNVLEMTSEDLENALKAVINDKSYKENIMRLSSLHKDRPVEPLDLAVFWVEFVMRHKGAPHLRPAAHDLTWYQYHSLDVIGFLLAVVLTVAFITFKCCAYGYRKCLGKKGRVKKAHKSKTH", "B8": "Comt (Rattus norvegicus, UniProt P22734); chain MPLAAVSLGLLLLALLLLLRHLGWGLVTIFWFEYVLQPVHNLIMGDTKEQRILRYVQQNAKPGDPQSVLEAIDTYCTQKEWAMNVGDAKGQIMDAVIREYSPSLVLELGAYCGYSAVRMARLLQPGARLLTMEMNPDYAAITQQMLNFAGLQDKVTILNGASQDLIPQLKKKYDVDTLDMVFLDHWKDRYLPDTLLLEKCGLLRKGTVLLADNVIVPGTPDFLAYVRGSSSFECTHYSSYLEYMKVVDGLEKAIYQGPSSPDKS", "note": "Each line is one published result; not all experiments were run side by side.", "chain of UniProt Q99518 (whole entry, looked up)": "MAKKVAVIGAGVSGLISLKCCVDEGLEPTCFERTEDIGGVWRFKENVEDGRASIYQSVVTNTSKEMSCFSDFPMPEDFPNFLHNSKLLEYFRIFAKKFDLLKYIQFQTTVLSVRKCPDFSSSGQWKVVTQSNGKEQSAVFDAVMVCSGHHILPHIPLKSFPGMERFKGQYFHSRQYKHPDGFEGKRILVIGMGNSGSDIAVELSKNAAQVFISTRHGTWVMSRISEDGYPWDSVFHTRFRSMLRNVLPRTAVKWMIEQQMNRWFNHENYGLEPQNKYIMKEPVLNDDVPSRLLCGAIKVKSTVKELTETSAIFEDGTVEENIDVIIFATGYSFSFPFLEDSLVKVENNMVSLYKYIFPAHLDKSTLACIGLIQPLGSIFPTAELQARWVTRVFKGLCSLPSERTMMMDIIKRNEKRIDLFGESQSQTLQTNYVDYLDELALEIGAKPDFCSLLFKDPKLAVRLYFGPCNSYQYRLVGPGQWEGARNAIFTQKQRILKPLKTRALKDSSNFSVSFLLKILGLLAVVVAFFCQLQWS", "chain of UniProt Q3SY77 (whole entry, looked up)": "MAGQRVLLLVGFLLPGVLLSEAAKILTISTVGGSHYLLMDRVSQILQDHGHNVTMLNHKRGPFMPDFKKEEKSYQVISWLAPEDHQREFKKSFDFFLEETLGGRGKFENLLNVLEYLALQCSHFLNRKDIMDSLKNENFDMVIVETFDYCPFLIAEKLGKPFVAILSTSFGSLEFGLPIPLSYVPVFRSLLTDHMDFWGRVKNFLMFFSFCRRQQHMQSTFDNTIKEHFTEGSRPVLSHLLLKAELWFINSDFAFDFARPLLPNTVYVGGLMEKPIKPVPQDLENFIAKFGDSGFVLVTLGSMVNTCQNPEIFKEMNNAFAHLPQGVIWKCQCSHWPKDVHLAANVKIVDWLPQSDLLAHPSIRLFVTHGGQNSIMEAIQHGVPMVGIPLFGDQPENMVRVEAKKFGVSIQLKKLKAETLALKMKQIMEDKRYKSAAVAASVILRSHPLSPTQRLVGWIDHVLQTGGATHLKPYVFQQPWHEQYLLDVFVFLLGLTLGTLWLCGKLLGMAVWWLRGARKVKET", "chain of UniProt O82390 (whole entry, looked up)": "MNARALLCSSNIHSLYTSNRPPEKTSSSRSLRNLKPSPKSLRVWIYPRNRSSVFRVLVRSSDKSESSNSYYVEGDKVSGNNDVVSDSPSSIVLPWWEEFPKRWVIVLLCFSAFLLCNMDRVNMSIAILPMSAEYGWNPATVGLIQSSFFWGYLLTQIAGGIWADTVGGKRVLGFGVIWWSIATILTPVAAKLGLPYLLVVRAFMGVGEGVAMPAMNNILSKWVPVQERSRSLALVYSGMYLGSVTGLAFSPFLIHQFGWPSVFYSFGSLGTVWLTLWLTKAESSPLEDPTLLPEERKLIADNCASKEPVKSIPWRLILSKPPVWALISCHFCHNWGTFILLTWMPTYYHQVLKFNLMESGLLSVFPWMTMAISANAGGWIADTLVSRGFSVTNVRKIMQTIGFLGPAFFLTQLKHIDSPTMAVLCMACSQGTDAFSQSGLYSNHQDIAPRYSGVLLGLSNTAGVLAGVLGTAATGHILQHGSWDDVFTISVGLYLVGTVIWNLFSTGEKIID"}
{"Substance": "B1 (enzyme)", "substrate": "C=C/C=C\\CC1=C(C)[C@@H](O)CC1=O", "setting": "pH 7.5, 25 °C", "Vmax/Km [µL/min/mg]": 410}
{"Substance": "UGT3A2 (Homo sapiens, UniProt Q3SY77)", "substrate": "O=c1ccn([C@@H]2O[C@H](COP(=O)(O)OP(=O)(O)O[C@H]3OC[C@@H](O)[C@H](O)[C@H]3O)[C@@H](O)[C@H]2O)c(=O)[nH]1", "setting": "pH 7.4, 37 °C, not purified, with: 1-OH-pyrene 16 µM, MgCl2 10 mM, alamethicin", "Vmax/Km [µL/min/mg]": 1.4}
{"Substance": "B2 (FMO3 D132H)", "substrate": "CN1CCC[C@H]1c1cccnc1", "system": "HEK293 microsomes", "setting": "37 °C, not purified, with: NADPH regenerating system", "Vmax/Km [µL/min/mg]": 0.0039}
{"Substance": "B3 (UGT1A1)", "substrate": "COc1cc2c(cc1CC=C(C)C)C(=O)C[C@@H](c1ccc(O)cc1)O2", "setting": "pH 7.4, 37 °C", "Vmax/Km [µL/min/mg]": 191}
{"Substance": "enzyme (Arabidopsis thaliana, UniProt O82390)", "substrate": "O=P(O)(O)O", "setting": "pH 6.5, 25 °C, apparent, not purified", "Vmax/Km [µL/min/mg]": 71.7}
{"Substance": "FMO2 (Homo sapiens, UniProt Q99518)", "substrate": "CN1CCC[C@H]1c1cccnc1", "system": "HEK293 microsomes", "setting": "37 °C, not purified, with: NADPH regenerating system", "Vmax/Km [µL/min/mg]": 0.0018}
{"Substance": "B4 (enzyme)", "substrate": "CC/C=C\\C/C=C\\C/C=C\\CCCCCCCC(=O)SCCNC(=O)CCNC(=O)[C@H](O)C(C)(C)COP(=O)(O)OP(=O)(O)OC[C@H]1O[C@@H](n2cnc3c(N)ncnc32)[C@H](O)[C@@H]1OP(=O)(O)O", "setting": "pH 7.4, 37 °C, apparent, not purified", "Vmax/Km [µL/min/mg]": 1500}
{"Substance": "B5 (CMBL)", "substrate": "Cc1oc(=O)oc1COC(=O)C1=C([C@H]2CCCO2)S[C@@H]2[C@@H]([C@@H](C)O)C(=O)N12", "system": "lysate", "setting": "pH 7.4, 37 °C, not purified", "Vmax/Km [µL/min/mg]": 58}
{"Substance": "B6 (FMO3 E158K)", "substrate": "CN1CCC[C@H]1c1cccnc1", "system": "HEK293 microsomes", "setting": "37 °C, not purified, with: NADPH regenerating system", "Vmax/Km [µL/min/mg]": 0.0062}
{"Substance": "B7 (UGT1A9)", "substrate": "COc1cccc2oc(-c3ccccc3)c(O)c(=O)c12", "setting": "pH 7.4, 37 °C", "Vmax/Km [µL/min/mg]": 24000}
{"Substance": "B8 (Comt)", "substrate": "O=c1oc2c(O)c(O)ccc2cc1-c1nc2ccccc2s1", "system": "rat liver S9", "setting": "pH 7.4, 37 °C", "Vmax/Km [µL/min/mg]": 763}
{"note": "Excerpt of the above:"}
{"Substance": "B2 (FMO3 D132H)", "substrate": "CN1CCC[C@H]1c1cccnc1", "system": "HEK293 microsomes", "setting": "37 °C, not purified, with: NADPH regenerating system", "Vmax/Km [µL/min/mg]": 0.0039}
